{"data": "Assay results of several laboratories", "note": "Lines come from different studies, so protocols differ."}
{"SMILES": "CCn1cnc2c([C@@](O)(CC)c3ccc(C(F)(F)F)nc3)n(C)nc2c1=O", "assay": "nephelometry", "system": "aqueous buffer", "setting": "30 min, pH 6.5", "measurement": "kinetic solubility", "result": "> 80 µM"}
{"SMILES": "O=c1nc(N2CCN(CC3CCCCC3)CC2)sc2c([N+](=O)[O-])cc(C(F)(F)F)cc12", "system": "CD-1 mouse, lung", "setting": "intravenous, 10 mg/kg, 30 min", "measurement": "concentration", "result": "2700 ng/mL"}
{"SMILES": "Cc1nn(C2CC2)c(=O)c2nn(C)c(Cc3ccc(C(F)(F)F)c(C#N)c3)c12", "assay": "nephelometry", "system": "aqueous buffer", "setting": "30 min, pH 6.5", "measurement": "kinetic solubility", "result": "8 to 16 µM"}
{"SMILES": "O=C(c1ccc(F)cc1)C1CCN(CCn2c(=O)[nH]c3ccccc3c2=O)CC1", "assay": "metabolic stability", "system": "monkey, liver microsomes", "setting": "30 min", "measurement": "compound remaining", "result": "37.7%"}
{"SMILES": "Cn1nc2c(=O)n(C3CC3)cc(C3CC3)c2c1Cc1ccc(C(F)(F)F)nc1", "assay": "nephelometry", "system": "aqueous buffer", "setting": "30 min, pH 6.5", "measurement": "kinetic solubility", "result": "65 to 130 µM"}
{"SMILES": "Cc1noc(C)c1Cn1cc(N2C(=O)CN(Cc3cccc(O)c3)C2=O)cn1", "system": "male Sprague-Dawley rat, plasma", "setting": "oral, 100 mg/kg, 8 h", "measurement": "concentration", "result": "15.2 ng/mL"}
{"SMILES": "Cc1nc(-c2cnc(NC(C)C)n(C)c2=O)ccc1Oc1ccnc(-c2cnn(C)c2)c1", "system": "female mouse, plasma", "setting": "oral, 3.75 mg/kg, single dose", "measurement": "Tmax", "result": "6 h"}
{"SMILES": "COc1cccc(-c2n[nH]c(SCc3ccccn3)n2)c1OC", "system": "female Sprague-Dawley rat, plasma", "setting": "oral, 100 mg/kg, 15 min, single dose", "measurement": "concentration", "result": "94800 ng/mL"}
{"SMILES": "COc1ccc2c(=O)n(C)c(-c3ccccc3)nc2c1", "system": "male Sprague-Dawley rat, spleen", "setting": "oral, 30 mg/kg, 30 min", "measurement": "concentration", "result": "12.1 ng/mL"}
{"SMILES": "Cn1nc2c(=O)n(C3CC3)cc(Cl)c2c1Cc1ccc(C(F)(F)F)nc1", "assay": "nephelometry", "system": "aqueous buffer", "setting": "30 min, pH 6.5", "measurement": "kinetic solubility", "result": "70 to 140 µM"}
{"SMILES": "O=C(COc1ccc(Cl)cc1)NC12CC(c3nnc([C@H]4C[C@@H](OC(F)(F)F)C4)o3)(C1)C2", "system": "human, plasma", "setting": "oral, 15 mg, single dose, fasted, healthy volunteers", "measurement": "Tmax", "result": "8.04 h"}
{"SMILES": "COc1ccc([C@@H](O)c2cc(-c3ncnc4cc(N5CCOCC5)ccc34)c(F)cc2Cl)nn1", "system": "human, plasma", "setting": "oral, 100 mg, single dose, patients", "measurement": "Tmax", "result": "1.06 h"}
{"note": "For quick reference, copied from above:"}
{"SMILES": "Cn1nc2c(=O)n(C3CC3)cc(Cl)c2c1Cc1ccc(C(F)(F)F)nc1", "assay": "nephelometry", "system": "aqueous buffer", "setting": "30 min, pH 6.5", "measurement": "kinetic solubility", "result": "70 to 140 µM"}
